{"data": "Measured values of several laboratories", "note": "Numbered parts are unrelated; each lists some results of a single study."}
{"data": "Sample 1", "target": "Ras GTPase-activating protein-binding protein 1, full length (G3BP1, Homo sapiens, UniProt Q13283)", "technique": "RNA Bind-n-Seq", "molecule type": "RNA", "medium": "in vitro", "tested at": "200 nM", "setting": "whole 134-nt RNA, ends assumed", "added": "150 mM LiCl", "reference": "input library", "direction": "higher = stronger binding", "all molecules": "7-deaza-guanosine replaces G", "all sequences stand within": "GGGAGUUCUACAGUCCGACGAUC … UGGAAUUCUCGGGUGUCAAGG", "sequence of UniProt Q13283 (whole entry, looked up)": "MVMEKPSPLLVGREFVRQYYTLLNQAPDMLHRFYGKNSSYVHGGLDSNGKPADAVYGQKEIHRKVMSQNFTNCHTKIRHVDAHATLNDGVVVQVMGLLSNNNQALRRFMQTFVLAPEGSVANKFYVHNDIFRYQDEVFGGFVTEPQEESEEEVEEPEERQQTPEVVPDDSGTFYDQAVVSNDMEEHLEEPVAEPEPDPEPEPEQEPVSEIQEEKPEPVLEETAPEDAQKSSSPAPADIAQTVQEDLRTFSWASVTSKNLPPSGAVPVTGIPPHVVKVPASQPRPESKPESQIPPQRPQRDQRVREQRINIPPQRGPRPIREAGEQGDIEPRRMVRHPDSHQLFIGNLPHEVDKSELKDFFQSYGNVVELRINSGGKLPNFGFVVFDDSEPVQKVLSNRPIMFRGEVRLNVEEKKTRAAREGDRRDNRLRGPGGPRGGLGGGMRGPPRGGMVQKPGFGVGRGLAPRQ"}
{"Strand": "UCCUGUGCUACACAUCGUAUGUACCGAAUCGGGAAAGGGAAAAAAAGGGUUUUUUUGGGAAAGUAUUAUGUUACGCCGUUCGGAUCUGCA", "log2 enrichment": -0.31}
{"Strand": "CCUCAAGUCCUGUGCUACACAUCGUAUGUACCGAAUCGGUGGAAAGGAAAGGAAAGUAUUAUGUUACGCCGUUCGGAUCUGCACUUCCAG", "log2 enrichment": 0.353}
{"Strand": "UGGCCCUGGUGGCAUGCGGGGAGGAAGAGGUGGACUCAUGGAUCGUGGUGGUCCCGGUGGAAUGUUCAGAGGUGGCCGUGGUGGAGACAG", "log2 enrichment": 0.53}
{"Strand": "CACAGACAACACGCACCCACACAGACACAGAGGGAACGGGUUGGGAUGGGGACAGGGUGCACAGCAGGGCGGGGUAGGACCCCAGCCCCU", "log2 enrichment": -1.8}
{"Strand": "AAGUCCUGUGCUACACAUCGUAUGUACCGAAUCGGUUUUUGGAAAGGUUUUUUUGGAAAGUAUUAUGUUACGCCGUUCGGAUCUGCACUU", "log2 enrichment": -1.67}
{"Strand": "AGUCCUGUGCUACACAUCGUAUGUACCGAAUCGGGAAAAAGGAAAAAGGAAAAAGGGAAAGUAUUAUGUUACGCCGUUCGGAUCUGCACU", "log2 enrichment": -1.25}
{"Strand": "AGUCCUGUGCUACACAUCGUAUGUACCGAAUCAAACCCCCCCAAAUUUAAAUUUAAAAAAGUAUUAUGUUACGCCGUUCGGAUCUGCACU", "log2 enrichment": 1.19}
{"Strand": "UCCUGUGCUACACAUCGUAUGUACCGAAUCGGGGAAAGGGGAAAGGGGAAAAAAAGGGGAAAGUAUUAUGUUACGCCGUUCGGAUCUGCA", "log2 enrichment": 0.656}
{"data": "Sample 2", "target": "Histone acetyltransferase KAT6A, winged helix 1, GST fusion (KAT6A, Homo sapiens, UniProt Q92794, residues 1-85)", "technique": "protein binding microarray", "molecule type": "double-stranded DNA, one strand shown", "medium": "in vitro", "tested at": "not given", "setting": "8-mer, flanks averaged, mean of 2 arrays, mostly near background", "reference": "not given", "direction": "higher = stronger binding", "Construct (chain)": "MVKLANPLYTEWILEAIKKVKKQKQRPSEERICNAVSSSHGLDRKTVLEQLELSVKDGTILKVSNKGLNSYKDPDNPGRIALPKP"}
{"Strand": "GAACGCCC", "E-score": 0.0392}
{"Strand": "GCCGATAC", "E-score": 0.351}
{"Strand": "CGGTTAAC", "E-score": 0.201}
{"Strand": "CTGAAACC", "E-score": 0.0815}
{"Strand": "AAACGTGT", "E-score": -0.144}
{"Strand": "GAATGGTC", "E-score": 0.0592}
{"Strand": "CGAGACCA", "E-score": -0.178}
{"Strand": "ACCAAGCA", "E-score": -0.221}
{"Strand": "ACAAAGAA", "E-score": -0.191}
{"Strand": "TAGGGCGA", "E-score": -0.105}
{"Strand": "CGATCAGC", "E-score": 0.0215}
{"Strand": "ATGCGAGG", "E-score": 0.00153}
{"Strand": "ATGCCAAT", "E-score": -0.274}
{"Strand": "ATTCTAGC", "E-score": -0.235}
{"Strand": "AACCCACT", "E-score": 0.00577}
{"Strand": "AGCAACAG", "E-score": -0.131}
{"Strand": "TGAAAACA", "E-score": 0.015}
{"Strand": "TGTAAGAA", "E-score": -0.0591}
{"data": "Sample 3", "target": "Cyclic AMP-dependent transcription factor ATF-1 (ATF1, Homo sapiens, UniProt P18846, residues 1-271, full length assumed)", "technique": "protein-binding microarray", "molecule type": "double-stranded DNA, one strand shown", "medium": "in vitro", "tested at": "not given", "setting": "k-mer, scored over probes, only values ≥0.25", "direction": "higher = stronger binding", "Construct (chain)": "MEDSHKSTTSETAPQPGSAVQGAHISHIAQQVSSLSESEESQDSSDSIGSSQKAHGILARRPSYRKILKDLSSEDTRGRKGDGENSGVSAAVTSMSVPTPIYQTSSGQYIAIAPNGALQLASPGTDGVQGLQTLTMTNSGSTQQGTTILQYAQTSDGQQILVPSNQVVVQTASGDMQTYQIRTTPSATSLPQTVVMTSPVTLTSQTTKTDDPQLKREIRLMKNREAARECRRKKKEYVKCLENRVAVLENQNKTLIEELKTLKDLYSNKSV"}
{"Strand": "CCGCCCC", "E-score": 0.28}
{"Strand": "CGTCATA", "E-score": 0.48}
{"Strand": "GTCGTCA", "E-score": 0.391}
{"Strand": "ATGCGTC", "E-score": 0.359}
{"Strand": "GCGTGAC", "E-score": 0.373}
{"Strand": "CTGACGA", "E-score": 0.284}
{"Strand": "GTGACAC", "E-score": 0.305}
{"Strand": "CGTAGAC", "E-score": 0.304}
{"Strand": "ACGTTAC", "E-score": 0.359}
{"Strand": "CGTACGC", "E-score": 0.257}
{"Strand": "GTCACCA", "E-score": 0.341}
{"Strand": "ACGCGTA", "E-score": 0.269}
{"Strand": "TACGACA", "E-score": 0.278}
{"Strand": "AGCTTAC", "E-score": 0.251}
{"Strand": "AACGTAC", "E-score": 0.278}
{"Strand": "ACCGTCA", "E-score": 0.345}
{"data": "Sample 4", "target": "UBE2Q1 UBC core domain (UniProt Q7Z7E8)", "technique": "yeast two-hybrid", "medium": "yeast", "setting": "mostly zero background", "reference": "not given", "direction": "higher = stronger interaction", "B1": "NEURL1 RING domain (UniProt O76050); chain VTPGLGQWSDECTICYEHAVDTVIYTCGHMCLCYACGLRLKKALHACCPICRRPIKDIIKT", "B2": "RNF38 RING domain (UniProt Q9H0F5); chain PNNHQSEQTLCVVCMCDFESRQLLRVLPCNHEFHAKCVDKWLKANRTCPICRADASEVHRDS", "B3": "TRIM24 RING domain (UniProt O15164); chain EAARLNLLDTCAVCHQNIQSRAPKLLPCLHSFCQRCLPAPQRYLMLPAPMLGSAETPPPVPAPGSPVSGSSPFATQVGVIRCPVCSQECAERHII", "B4": "TRAF5 RING domain (UniProt O00463); chain FVERLEERYKCAFCHSVLHNPHQTGCGHRFCQHCILSLRELNTVPICPVDKEVIKSQEVFK", "B5": "MKRN1 RING domain (UniProt Q9UHC7); chain FAVQRSKDMVCGICMEVVYEKANPSERRFGILSNCNHTYCLKCIRKWRSAKQFESKIIKSCPECRITSNFVIPSE", "B6": "TRIM13 RING domain (UniProt O60858); chain MELLEEDLTCPICCSLFDDPRVLPCSHNFCKKCLEGILEGSVRNSLWRPAPFKCPTCRKETSATGINS", "Construct (chain)": "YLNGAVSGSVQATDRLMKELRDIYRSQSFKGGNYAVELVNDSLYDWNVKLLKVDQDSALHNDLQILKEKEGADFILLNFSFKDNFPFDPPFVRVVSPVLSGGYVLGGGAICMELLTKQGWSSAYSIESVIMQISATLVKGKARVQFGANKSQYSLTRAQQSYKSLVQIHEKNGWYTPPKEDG"}
{"Sequence": "B1 (NEURL1 RING domain)", "lacZ reporter activity": 0}
{"Sequence": "QVDKAVFHMQSVKCLKCQEQKRAVLPCQHAALCELCAEGSECPICQPGRAHTLQS (UNK RING domain (UniProt Q9C0B0))", "lacZ reporter activity": 0}
{"Sequence": "B2 (RNF38 RING domain)", "lacZ reporter activity": 0}
{"Sequence": "B3 (TRIM24 RING domain)", "lacZ reporter activity": 0}
{"Sequence": "B4 (TRAF5 RING domain)", "lacZ reporter activity": 0}
{"Sequence": "B5 (MKRN1 RING domain)", "lacZ reporter activity": 0}
{"Sequence": "DHGAVGQEMCCPICCSEYVKGEVATELPCHHYFHKPCVSIWLQKSGTCPVCRCMFPPPL (PJA1 RING domain (UniProt Q8NG27))", "lacZ reporter activity": 0}
{"Sequence": "B6 (TRIM13 RING domain)", "lacZ reporter activity": 0}
{"data": "Sample 5", "target": "RING finger protein unkempt homolog, zinc fingers 1-6, SBP tag (UNK, Homo sapiens, UniProt Q9C0B0, residues 30-357)", "technique": "RNA Bind-n-Seq", "molecule type": "RNA", "medium": "in vitro", "tested at": "100 nM", "setting": "RNA with constant flanks, vertebrate orthologous sites, ends assumed", "reference": "input RNA pool", "direction": "higher = stronger binding", "all sequences stand within": "GGGAGUUCUACAGUCCGACGAUC … CAACAGAGGAUUGAGCAUCA"}
{"Strand": "ACAAGAUUUGGACCUUGGAGCAGAACCAGUUAGCAAAAGGAAAGCAAGCUUGUAAAAUUAUAGCCAUAUGCAGCUGCACAACAGUACUUCCACUAGCAACUGUAUUGAAGUAUUUAUACA", "bound/input enrichment": "1.23 ratio"}
{"Strand": "UGCGAACUCUUGCAGUCUUAGAUGUUAUACAAAAAUAUGUAUCUGAAUUGUAAGAGUUGUUAGCACAGGUUUUUUUUUUUUUUUUAAGCACUUGUUUUGGGUACAAGGCAUUUCUGAAAU", "bound/input enrichment": "0.502 ratio"}
{"Strand": "AAAUGAAAAUGGCUUCUGCUCCAUUAAAAAAUAAAAAUUGUCCCCUAUAAAACUCCUUAAUAGAUAUUUUUGGAAUUAAAAUCUUUAAAUUUUAUAAAUCAGCUCUUGCCACUUCAAAAC", "bound/input enrichment": "1.19 ratio"}
{"Strand": "AGAAAAUUUUAACCAAGAAUCUGAAGGUAGAAAUACAGGACCAUGGUUAUCUUCCUCACUUAGAAAUAGAUGCACACCCUUGUUCUCUAGAAGGAGGCGUGAGGGACGAGAUGAAUCUUC", "bound/input enrichment": "0.771 ratio"}
{"Strand": "UGUCUGCCUCAUUCUAAAAUUUACACAGUAGACCAUUUGUCACUCAUGCUGUCCCACGAAUAGUUUUUGUUUACGAUUUAUGACAGGUUUAUGUUACUUCUAUUUGGAUUUCUAUAUUUC", "bound/input enrichment": "0.957 ratio"}
{"Strand": "CUAUUAAUGCACUGUAUUCCAGGCAUCGUCUGAAUUUUAGUGUAAUCUAGGAGAUUUUUAUAAUUUUAUUUUAAUGAAGUAUGGAUUGAUGCAGAGUUGUUAGCAGUCUGUAGUCUUUUA", "bound/input enrichment": "0.646 ratio"}
{"Strand": "GAGAUUCCCCAUUGUCACUGAGAACCACCAAAUCUGACUUUUACAUUUGGUCUCAGAAUUUAGGUUCCUGCCCUGUUGGUUUUUUUUUUUUUUUUUAAAACAGUUUUCGAAAGUUCUUAA", "bound/input enrichment": "0.804 ratio"}
{"Strand": "AAUAUUGAAAAGUAUUAAAGAAACAUUUUUGUCUUCCUUUACCUGUUGUCCCCUAAUACCUAGUCUACUUUUUAAAUUUUCAGACUUCAUUACUCUUUGAAUUGAUAAUUCCAGUUUUCA", "bound/input enrichment": "0.803 ratio"}
{"data": "Mixed results"}
{"Sequence": "GSPAKKLFTSTGL", "organism": "Saccharomyces cerevisiae", "assay": "peptide binding, yeast competitive growth sequencing", "system": "peptide, cyclin E2-Cln2 fusion", "conditions": "library 1", "how to read": "direction not given", "measurement": "enrichment score", "result": 0.239}
{"note": "A few entries again (sample 2):"}
{"Strand": "AAACGTGT", "E-score": -0.144}
{"Strand": "GAATGGTC", "E-score": 0.0592}
{"Strand": "CGAGACCA", "E-score": -0.178}
{"Strand": "ACCAAGCA", "E-score": -0.221}
{"Strand": "ACAAAGAA", "E-score": -0.191}
{"Strand": "TAGGGCGA", "E-score": -0.105}
{"Strand": "CGATCAGC", "E-score": 0.0215}
{"Strand": "ATGCGAGG", "E-score": 0.00153}
{"Strand": "ATGCCAAT", "E-score": -0.274}
